{"data": "Assay results from different studies", "CDK2": "Cyclin-dependent kinase 2 (CDK2, Homo sapiens, UniProt P24941)", "Genome polyprotein NS3 helicase domain": "Genome polyprotein, NS3 helicase domain (Hepatitis C virus genotype 1b, UniProt Q9WMX2)", "DRD3": "D(3) dopamine receptor (DRD3, Homo sapiens, UniProt P35462)", "note": "Each line is one published result; not all experiments were run side by side. ± gives the spread as reported."}
{"SMILES": "NC(=O)c1ccc(NCCCN2CCOCC2)c([N+](=O)[O-])c1", "tested on": "CDK2", "assay": "binding", "endpoint": "Kd", "value": "> 100 µM"}
{"SMILES": "CC(C)c1noc2ncc(C(=O)c3ccccc3O)cc12", "tested on": "Asic1 (Rattus norvegicus, UniProt P55926)", "assay": "ion current, whole-cell patch-clamp", "conditions": "10 µM, rASIC1a", "endpoint": "inhibition", "value": "6.56%"}
{"SMILES": "CCN(CC)CCOCCOC(=O)C1(c2ccccc2)CCCC1", "tested on": "Genome polyprotein NS3 helicase domain", "assay": "DNA binding, inhibitor", "system": "hepatitis C virus", "conditions": "100 µM, added: Cy5-dT15 DNA", "endpoint": "inhibition", "value": "0%"}
{"SMILES": "Oc1ccc(-c2nnc(CCCOc3ccc(Cl)cc3Cl)o2)c(F)c1", "tested on": "dxs (Deinococcus radiodurans, UniProt Q9RUB5)", "assay": "enzyme activity, inhibitor", "conditions": "60 µM", "endpoint": "inhibition", "value": "48.2 ± 3.4%"}
{"SMILES": "COc1cc2ncnc(Nc3cccc(Cl)c3)c2cc1OC", "tested on": "Genome polyprotein NS3 helicase domain", "assay": "DNA binding, inhibitor", "system": "hepatitis C virus", "conditions": "100 µM, added: Cy5-dT15 DNA", "endpoint": "inhibition", "value": "0%"}
{"SMILES": "Cn1cc(-c2ccc(-c3cncc(Cl)c3N3CCC4(CCNC4=O)CC3)cc2)cn1", "tested on": "COLO 205", "assay": "gene expression, microarray, refers to: APOL6 mRNA", "conditions": "concentration not given, 2 h", "scale": "reference: untreated cells", "endpoint": "log2 fold change", "value": 2.09}
{"SMILES": "COC(=O)c1ccccc1NC(=O)CSc1nnc(-c2ccc(OC)cc2)n1C", "tested on": "CDK2", "assay": "binding", "endpoint": "Kd", "value": "> 100 µM"}
{"SMILES": "CN(C)c1nc(N(C)C)nc(N(C)C)n1", "tested on": "Genome polyprotein NS3 helicase domain", "assay": "DNA binding, inhibitor", "system": "hepatitis C virus", "conditions": "100 µM, added: Cy5-dT15 DNA", "endpoint": "inhibition", "value": "0%"}
{"SMILES": "COc1ccc2c(c1)C(=O)N(CCN1CCN(c3ccccc3OC)CC1)C2", "tested on": "DRD3", "assay": "radioligand binding", "conditions": "concentration not given, added: [3H]N-methylspiperone", "endpoint": "inhibition", "value": "98.1%"}
{"SMILES": "CC(C)=CC1NCCc2cc(O)c(O)cc21 (stereo not shown)", "tested on": "tyrosinase", "assay": "enzyme activity, inhibitor", "conditions": "100 µM, added: levodopa", "endpoint": "inhibition", "value": "12.9 ± 2.51%"}
{"SMILES": "Cc1nn(-c2nc3c(F)cc(F)cc3s2)c(O)c1C(c1ccccc1C(F)(F)F)c1c(C)nn(-c2nc3c(F)cc(F)cc3s2)c1O", "tested on": "CGAS (Homo sapiens, UniProt Q8N884)", "assay": "enzyme activity, inhibitor, pyrophosphatase-coupled", "conditions": "100 µM, 1.5 h, added: HT-DNA", "endpoint": "inhibition", "value": "88.8%"}
{"SMILES": "COc1ccc2c(c1)C(=O)N(CCCN1CCN(c3ccccc3OC)CC1)C2", "tested on": "DRD3", "assay": "radioligand binding", "conditions": "concentration not given, added: [3H]N-methylspiperone", "endpoint": "inhibition", "value": "94.1%"}
{"SMILES": "NCCC[C@H](N)C(=O)O", "tested on": "Cationic amino acid transporter 8 (NPT1, Plasmodium vivax, UniProt A5K9W3)", "conditions": "100 µM", "endpoint": "inhibition", "value": "70.3%"}
{"SMILES": "CNC(=O)c1cc2c(Oc3ccc(NC(=O)C4(C(=O)Nc5ccc(F)cc5)CC4)cc3)ccnc2cc1OC", "tested on": "Vascular endothelial growth factor receptor 2 (Mus musculus, UniProt P35918)", "assay": "VEGFR2 phosphorylation", "system": "mouse, Hs746T xenograft, lung", "conditions": "30 mg/kg single dose, 4 h, added: human VEGF", "endpoint": "inhibition", "value": "100%"}
{"SMILES": "O=c1ccc2ccc(O)c(O)c2o1", "tested on": "Genome polyprotein NS3 helicase domain", "assay": "DNA binding, inhibitor", "system": "hepatitis C virus", "conditions": "100 µM, added: Cy5-dT15 DNA", "endpoint": "inhibition", "value": "0%"}
{"SMILES": "O=C1CN(CC[C@@H](CO)NCc2c[nH]c3c(O)nc(O)nc23)S(=O)(=O)N1", "tested on": "Hypoxanthine-guanine-xanthine phosphoribosyltransferase (Plasmodium falciparum, UniProt P20035)", "assay": "enzyme activity, inhibitor, coupled IMPDH", "conditions": "up to 100 µM", "endpoint": "inhibition", "value": "inactive"}
{"SMILES": "CC(C)NCC(O)COc1cccc2ccccc12 (stereo not shown)", "tested on": "Voltage-gated potassium channel, KQT; KCNQ2(Kv7.2)/KCNQ3(Kv7.3) (KCNQ3/KCNQ2, Homo sapiens, UniProt O43525+O43526)", "assay": "ion current, antagonist, SyncroPatch patch clamp", "system": "HEK293", "conditions": "10 µM", "endpoint": "inhibition", "value": "25%"}
{"SMILES": "CC[C@@H]1[C@H](F)C(=O)N[C@@H]1COc1nccc2cc(C(N)=O)c(OC)cc12", "tested on": "CAMK2D (Homo sapiens, UniProt Q13557)", "assay": "ATP-site probe binding, ActivX profiling", "system": "THP-1 cell lysate", "conditions": "0.2 mM, Lys1 site", "endpoint": "inhibition", "value": "16.3%"}
{"SMILES": "CCCn1c(=O)c2[nH]c(-c3ccc(S(=O)(=O)O)cc3)nc2n(CCC)c1=O", "tested on": "Genome polyprotein NS3 helicase domain", "assay": "DNA binding, inhibitor", "system": "hepatitis C virus", "conditions": "100 µM, added: Cy5-dT15 DNA", "endpoint": "inhibition", "value": "0%"}
{"SMILES": "CCCN1C[C@H](CSC)C[C@@H]2c3cccc4[nH]cc(c34)C[C@H]21", "tested on": "Glutamate receptor 2 (Homo sapiens, UniProt P42262)", "assay": "ion current, negative allosteric modulator, SyncroPatch patch clamp", "system": "HEK293", "conditions": "30 µM", "endpoint": "inhibition", "value": "1%"}
{"SMILES": "O=C(O)C1=CC(=C(c2ccc(O)c(C(=O)O)c2)c2ccc(O)c(C(=O)O)c2)C=CC1=O", "tested on": "Genome polyprotein NS3 helicase domain", "assay": "DNA binding, inhibitor", "system": "hepatitis C virus", "conditions": "100 µM, added: Cy5-dT15 DNA", "endpoint": "inhibition", "value": "96%"}
{"SMILES": "CNCc1ccc(-c2cc(-c3nc(-c4ccc(S(=O)(=O)C(C)C)cc4)cnc3N)on2)cc1", "tested on": "Protein kinase C beta type, isoform beta-II (PRKCB, Homo sapiens, UniProt P05771)", "assay": "enzyme activity", "conditions": "0.4 µM, added: ATP at Km", "endpoint": "inhibition", "value": "5%"}
{"note": "Some of these lines once more:"}
{"SMILES": "Oc1ccc(-c2nnc(CCCOc3ccc(Cl)cc3Cl)o2)c(F)c1", "tested on": "dxs (Deinococcus radiodurans, UniProt Q9RUB5)", "assay": "enzyme activity, inhibitor", "conditions": "60 µM", "endpoint": "inhibition", "value": "48.2 ± 3.4%"}
{"SMILES": "COc1cc2ncnc(Nc3cccc(Cl)c3)c2cc1OC", "tested on": "Genome polyprotein NS3 helicase domain", "assay": "DNA binding, inhibitor", "system": "hepatitis C virus", "conditions": "100 µM, added: Cy5-dT15 DNA", "endpoint": "inhibition", "value": "0%"}
{"SMILES": "Cn1cc(-c2ccc(-c3cncc(Cl)c3N3CCC4(CCNC4=O)CC3)cc2)cn1", "tested on": "COLO 205", "assay": "gene expression, microarray, refers to: APOL6 mRNA", "conditions": "concentration not given, 2 h", "scale": "reference: untreated cells", "endpoint": "log2 fold change", "value": 2.09}
{"SMILES": "COC(=O)c1ccccc1NC(=O)CSc1nnc(-c2ccc(OC)cc2)n1C", "tested on": "CDK2", "assay": "binding", "endpoint": "Kd", "value": "> 100 µM"}
